Measurements pooled from the literature.
Every numbered part comes from another study and shows a few of its results, in no order. Positions count from the first letter of the parent shown.

Series 1
Target: CCNA2, cyclin fold, Cln2 fusion (human)
Method: yeast growth competition, sequencing
Medium: yeast
Setting: strong parent motif
Reference: not given
Direction: higher = stronger binding
Quantity: normalised enrichment score
Starting sequence: viral docking peptide; KKVKRRLFETREL; partner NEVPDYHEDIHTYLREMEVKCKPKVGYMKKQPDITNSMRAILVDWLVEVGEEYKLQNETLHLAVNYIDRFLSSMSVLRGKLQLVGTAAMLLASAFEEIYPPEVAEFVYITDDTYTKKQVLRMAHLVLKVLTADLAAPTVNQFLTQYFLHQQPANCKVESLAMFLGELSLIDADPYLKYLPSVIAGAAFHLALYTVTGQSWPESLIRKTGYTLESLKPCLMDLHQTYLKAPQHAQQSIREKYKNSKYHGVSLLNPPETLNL
KKVKRRLFATREL [E9A]: 4.77
KKVKRRLFETREA [L13A]: 6.05
KKVKKRLFETREL [R5K]: 4.86
KKVKRRLFETRAL [E12A]: 5.38
KKVKKRLLETREL [R5K F8L]: 0.397
AKVKRRLFETREL [K1A]: 5.41
KKVARRLFETREL [K4A]: 5.27
KKVKRRAFETREL [L7A]: 1.54
KKVKRALFETREL [R6A]: 4.75

Series 2
Target: Interferon regulatory factor 7, full length, phosphomimetic (IRF7, Homo sapiens, UniProt Q92985, residues 1-503, S101K/S471D/S472D/S475D/S476D/S477D/S483D/S484D/S487D)
Method: protein-binding microarray
Molecule type: double-stranded DNA, one strand shown
Medium: in vitro
Tested at: 250 nM
Setting: 60-bp whole probe
Together with: salmon DNA 0.4 mg/ml
Reference: random background probes
Direction: higher = stronger binding
Quantity: log fluorescence
Shared flanks, not repeated: GCCTAGCAC … GTCTTGATTCGCTTGACGCTGCTG
Target sequence (chain): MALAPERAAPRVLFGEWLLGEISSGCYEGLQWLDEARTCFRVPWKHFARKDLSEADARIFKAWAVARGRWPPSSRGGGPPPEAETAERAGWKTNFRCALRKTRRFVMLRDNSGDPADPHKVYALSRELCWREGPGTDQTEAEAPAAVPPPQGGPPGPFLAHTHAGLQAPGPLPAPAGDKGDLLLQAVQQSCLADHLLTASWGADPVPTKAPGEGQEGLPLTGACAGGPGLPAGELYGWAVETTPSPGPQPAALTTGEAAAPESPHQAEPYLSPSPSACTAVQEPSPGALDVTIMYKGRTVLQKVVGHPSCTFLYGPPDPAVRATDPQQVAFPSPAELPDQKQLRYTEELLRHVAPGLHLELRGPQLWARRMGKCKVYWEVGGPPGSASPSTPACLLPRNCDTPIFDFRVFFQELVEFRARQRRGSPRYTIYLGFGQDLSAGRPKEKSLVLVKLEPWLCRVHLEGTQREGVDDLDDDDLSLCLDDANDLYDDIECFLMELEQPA
TTAGCTATCGGGACTGGATTAGTGCTA: -0.758 z-score
GACGGACTGGGTTTCGGTACGTGCTAG: 3.14 z-score
GACGGTATCCTTTTCCAGACGTGCTAG: 0.82 z-score
GAAGGACTGGACTTTCGGGACGTGCTA: -0.373 z-score
CTGCATTACAGCTATTTTTAGGTGCTA: 0.189 z-score
GACGGTTACGGTATCGGGACGTGCTAG: 0.321 z-score
TCCTCTCTCTTTCCACTTGTGTGCTAG: 1.1 z-score
TTAGGTTTCGGTCTCGCTTAGTGCTAG: 8.19 z-score

Series 3
Target: HLA class I histocompatibility antigen, A alpha chain, allele A*80:01 (Homo sapiens, UniProt P04439)
Read-out: peptide-MHC binding
Molecule type: peptide
Tested at: concentration not given
Quantity: binding
MTRVTNNVY: inactive
FHKRDMRLL: inactive
LEFNSSLAI: inactive
GVPELGAFF: inactive

Other studies, line by line
Method: cross-linking MS
Setting: hits only
SIN3A (Homo sapiens, UniProt Q96ST3)  interaction screen (ING2 (Homo sapiens, UniProt Q9H160)): cross-linked
HSPA5 (Homo sapiens, UniProt P11021)  interaction screen (MRC1 (Homo sapiens, UniProt P22897)): cross-linked
KRT18 (Homo sapiens, UniProt P05783)  interaction screen (KRT8 (Homo sapiens, UniProt P05787)): cross-linked
NEFL (Homo sapiens, UniProt P07196)  interaction screen (VIM (Homo sapiens, UniProt P08670)): cross-linked

Some of these lines once more (series 3):
MTRVTNNVY: inactive
GVPELGAFF: inactive
